Assay results of several laboratories.
Numbered parts are unrelated; each lists some results of a single study.
UniProt Q8WXR4, sequence (whole entry, looked up): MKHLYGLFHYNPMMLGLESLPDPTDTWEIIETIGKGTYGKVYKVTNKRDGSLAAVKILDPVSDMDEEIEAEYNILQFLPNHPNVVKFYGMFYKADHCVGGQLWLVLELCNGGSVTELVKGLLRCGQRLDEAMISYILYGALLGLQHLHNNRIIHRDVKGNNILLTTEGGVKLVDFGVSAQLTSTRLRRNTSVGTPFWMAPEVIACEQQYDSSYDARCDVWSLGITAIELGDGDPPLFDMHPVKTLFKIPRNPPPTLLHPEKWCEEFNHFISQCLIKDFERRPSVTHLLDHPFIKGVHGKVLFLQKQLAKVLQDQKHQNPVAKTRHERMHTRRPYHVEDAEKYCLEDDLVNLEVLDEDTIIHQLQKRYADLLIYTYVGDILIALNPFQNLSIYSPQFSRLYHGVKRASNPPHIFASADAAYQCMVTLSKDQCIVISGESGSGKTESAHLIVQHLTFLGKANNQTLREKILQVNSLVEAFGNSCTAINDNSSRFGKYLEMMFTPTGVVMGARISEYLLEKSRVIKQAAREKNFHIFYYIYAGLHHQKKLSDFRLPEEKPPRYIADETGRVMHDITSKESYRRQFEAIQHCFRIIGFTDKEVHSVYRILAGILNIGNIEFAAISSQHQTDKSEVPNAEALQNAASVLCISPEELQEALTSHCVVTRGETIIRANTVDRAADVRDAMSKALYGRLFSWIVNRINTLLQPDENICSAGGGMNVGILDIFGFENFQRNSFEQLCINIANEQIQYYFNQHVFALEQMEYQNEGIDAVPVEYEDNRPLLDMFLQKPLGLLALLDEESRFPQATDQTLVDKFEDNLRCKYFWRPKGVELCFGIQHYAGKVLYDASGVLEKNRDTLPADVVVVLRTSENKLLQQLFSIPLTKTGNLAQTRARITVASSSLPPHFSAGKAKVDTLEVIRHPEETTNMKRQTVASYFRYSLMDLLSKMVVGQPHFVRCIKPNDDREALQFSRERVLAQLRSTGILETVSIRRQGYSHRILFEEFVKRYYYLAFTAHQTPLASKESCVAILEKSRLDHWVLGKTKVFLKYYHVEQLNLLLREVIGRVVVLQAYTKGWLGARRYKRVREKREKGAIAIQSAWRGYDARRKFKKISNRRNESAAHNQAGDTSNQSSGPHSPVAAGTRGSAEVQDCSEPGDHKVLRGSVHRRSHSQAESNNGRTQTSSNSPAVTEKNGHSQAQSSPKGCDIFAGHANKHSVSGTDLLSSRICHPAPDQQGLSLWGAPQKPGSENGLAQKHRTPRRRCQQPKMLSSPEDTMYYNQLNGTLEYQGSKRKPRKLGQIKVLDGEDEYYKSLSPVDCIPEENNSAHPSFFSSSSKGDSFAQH
UniProt Q9UBF8, sequence (whole entry, looked up): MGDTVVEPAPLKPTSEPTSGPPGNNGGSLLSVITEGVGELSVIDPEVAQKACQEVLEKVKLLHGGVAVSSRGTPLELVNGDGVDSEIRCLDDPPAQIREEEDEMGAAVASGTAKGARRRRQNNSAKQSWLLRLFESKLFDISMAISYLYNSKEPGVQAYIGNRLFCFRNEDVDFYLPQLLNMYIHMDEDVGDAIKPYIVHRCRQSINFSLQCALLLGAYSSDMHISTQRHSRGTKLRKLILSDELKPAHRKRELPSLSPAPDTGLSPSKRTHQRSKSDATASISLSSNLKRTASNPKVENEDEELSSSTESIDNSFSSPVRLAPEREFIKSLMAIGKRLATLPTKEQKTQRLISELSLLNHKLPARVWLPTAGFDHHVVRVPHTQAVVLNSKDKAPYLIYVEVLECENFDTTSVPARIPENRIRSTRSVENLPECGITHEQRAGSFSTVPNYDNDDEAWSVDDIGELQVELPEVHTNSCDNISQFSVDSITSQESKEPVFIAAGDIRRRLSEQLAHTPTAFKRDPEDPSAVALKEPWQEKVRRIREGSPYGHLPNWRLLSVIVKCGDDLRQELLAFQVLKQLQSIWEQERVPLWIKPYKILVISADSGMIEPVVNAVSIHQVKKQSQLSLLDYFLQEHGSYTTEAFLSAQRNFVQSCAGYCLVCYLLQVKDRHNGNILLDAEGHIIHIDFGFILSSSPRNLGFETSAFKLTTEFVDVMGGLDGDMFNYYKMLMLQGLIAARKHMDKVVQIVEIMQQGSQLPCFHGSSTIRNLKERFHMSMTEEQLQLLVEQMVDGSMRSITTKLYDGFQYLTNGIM
UniProt O14730, sequence (whole entry, looked up): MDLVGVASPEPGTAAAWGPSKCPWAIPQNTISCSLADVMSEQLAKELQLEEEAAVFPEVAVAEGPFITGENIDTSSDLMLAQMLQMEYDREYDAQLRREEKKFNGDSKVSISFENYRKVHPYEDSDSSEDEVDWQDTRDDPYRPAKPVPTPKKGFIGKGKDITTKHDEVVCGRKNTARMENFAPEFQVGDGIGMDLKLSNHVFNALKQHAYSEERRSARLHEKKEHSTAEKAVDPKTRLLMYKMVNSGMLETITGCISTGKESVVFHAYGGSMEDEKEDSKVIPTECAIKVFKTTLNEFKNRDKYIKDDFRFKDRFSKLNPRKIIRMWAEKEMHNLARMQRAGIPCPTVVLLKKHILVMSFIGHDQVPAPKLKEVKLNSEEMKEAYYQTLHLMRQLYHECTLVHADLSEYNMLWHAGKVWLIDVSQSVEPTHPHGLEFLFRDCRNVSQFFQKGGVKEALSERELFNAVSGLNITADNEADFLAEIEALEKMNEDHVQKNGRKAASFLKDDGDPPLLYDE
UniProt P29322, sequence (whole entry, looked up): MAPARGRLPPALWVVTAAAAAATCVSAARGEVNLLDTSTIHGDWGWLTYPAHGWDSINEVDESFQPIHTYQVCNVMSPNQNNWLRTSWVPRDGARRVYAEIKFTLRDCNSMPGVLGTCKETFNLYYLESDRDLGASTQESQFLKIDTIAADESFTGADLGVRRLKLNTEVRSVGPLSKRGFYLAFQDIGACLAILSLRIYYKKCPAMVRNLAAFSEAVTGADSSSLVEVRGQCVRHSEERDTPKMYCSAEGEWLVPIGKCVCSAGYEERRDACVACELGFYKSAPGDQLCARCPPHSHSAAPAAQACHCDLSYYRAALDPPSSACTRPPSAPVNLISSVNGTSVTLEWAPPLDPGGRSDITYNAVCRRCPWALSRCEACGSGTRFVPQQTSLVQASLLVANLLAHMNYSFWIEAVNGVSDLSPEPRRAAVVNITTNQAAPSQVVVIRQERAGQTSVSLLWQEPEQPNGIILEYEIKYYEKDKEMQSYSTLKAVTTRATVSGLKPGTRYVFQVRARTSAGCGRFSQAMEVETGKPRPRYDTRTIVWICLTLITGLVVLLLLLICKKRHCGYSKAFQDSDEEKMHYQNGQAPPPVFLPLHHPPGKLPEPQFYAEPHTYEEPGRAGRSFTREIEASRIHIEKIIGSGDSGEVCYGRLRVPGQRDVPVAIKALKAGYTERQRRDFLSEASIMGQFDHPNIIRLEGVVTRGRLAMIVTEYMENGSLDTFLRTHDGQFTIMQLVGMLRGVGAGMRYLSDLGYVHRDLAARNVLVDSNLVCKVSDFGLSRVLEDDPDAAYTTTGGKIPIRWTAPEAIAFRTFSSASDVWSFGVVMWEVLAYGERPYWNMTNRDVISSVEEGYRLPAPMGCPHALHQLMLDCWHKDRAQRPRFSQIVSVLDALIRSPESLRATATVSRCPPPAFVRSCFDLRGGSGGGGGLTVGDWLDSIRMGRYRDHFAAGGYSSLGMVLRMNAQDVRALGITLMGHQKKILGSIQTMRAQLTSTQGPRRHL
UniProt Q02156, sequence (whole entry, looked up): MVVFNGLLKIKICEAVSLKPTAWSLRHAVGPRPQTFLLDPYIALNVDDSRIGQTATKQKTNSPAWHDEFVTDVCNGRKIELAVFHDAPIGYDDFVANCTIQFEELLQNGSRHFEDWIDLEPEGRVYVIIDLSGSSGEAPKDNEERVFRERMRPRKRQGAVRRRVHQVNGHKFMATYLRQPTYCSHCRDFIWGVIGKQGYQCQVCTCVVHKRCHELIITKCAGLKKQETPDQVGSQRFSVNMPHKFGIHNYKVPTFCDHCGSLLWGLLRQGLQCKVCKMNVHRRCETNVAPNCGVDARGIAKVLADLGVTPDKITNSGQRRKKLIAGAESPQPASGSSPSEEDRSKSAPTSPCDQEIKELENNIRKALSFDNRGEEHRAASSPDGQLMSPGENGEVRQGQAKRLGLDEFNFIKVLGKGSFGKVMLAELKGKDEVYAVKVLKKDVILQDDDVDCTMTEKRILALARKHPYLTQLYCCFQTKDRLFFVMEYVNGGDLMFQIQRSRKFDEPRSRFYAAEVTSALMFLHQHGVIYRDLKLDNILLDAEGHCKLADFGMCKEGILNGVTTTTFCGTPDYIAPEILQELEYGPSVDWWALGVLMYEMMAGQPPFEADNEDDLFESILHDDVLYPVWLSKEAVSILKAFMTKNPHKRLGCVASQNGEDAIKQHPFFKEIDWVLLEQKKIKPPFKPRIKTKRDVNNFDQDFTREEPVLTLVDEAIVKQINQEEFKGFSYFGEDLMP
UniProt P28482, sequence (whole entry, looked up): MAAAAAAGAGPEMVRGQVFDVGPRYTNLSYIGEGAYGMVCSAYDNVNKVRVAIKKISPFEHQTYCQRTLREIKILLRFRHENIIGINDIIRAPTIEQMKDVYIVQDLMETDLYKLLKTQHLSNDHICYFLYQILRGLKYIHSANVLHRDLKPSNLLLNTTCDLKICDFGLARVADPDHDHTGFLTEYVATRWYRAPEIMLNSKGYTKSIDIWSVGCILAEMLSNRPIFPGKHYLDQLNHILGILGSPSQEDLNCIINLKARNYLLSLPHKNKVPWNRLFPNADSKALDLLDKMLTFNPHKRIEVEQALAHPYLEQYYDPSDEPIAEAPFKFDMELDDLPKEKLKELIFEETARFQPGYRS

Block 1 — effect on: enzyme activity; action: inhibitor; tested at: 0.5 µM; relative to: control
SMILES: CC(C)[C@H](CO)Nc1nc(Nc2cccc(Cl)c2)c2ncn(C(C)C)c2n1
| target | remaining activity [%] |
| --- | --- |
| MAPK14 (Homo sapiens, UniProt Q16539) | 99.4 |
| MAPK1 (Homo sapiens, UniProt P28482) | 86.7 |
| PRKG2 (Homo sapiens, UniProt Q13237) | 89.3 |
| PLK3 (Homo sapiens, UniProt Q9H4B4) | 86.4 |
| MAPK11 (Homo sapiens, UniProt Q15759) | 109 |
| RPS6KA4 (Homo sapiens, UniProt O75676) | 90.1 |
| PAK3 (Homo sapiens, UniProt O75914) | 94.2 |
| KDR (Homo sapiens, UniProt P35968) | 95 |
| MET (Homo sapiens, UniProt P08581) | 96.2 |
| AKT2 (Homo sapiens, UniProt P31751) | 90 |
| CAMK4 (Homo sapiens, UniProt Q16566) | 95.3 |
| CLK4 (Homo sapiens, UniProt Q9HAZ1) | 50.9 |
| Myosin-IIIb (MYO3B, Homo sapiens, UniProt Q8WXR4) | 94.2 |
| CDC42BPB (Homo sapiens, UniProt Q9Y5S2) | 108 |

Block 2 — technique: competition with immobilised ligand; tested at: 0.1 µM
Structure (SMILES): CCOC(=O)c1cc2cc(-c3cc(C(=O)NCc4ccc(C(=O)O)cc4)nn3C)ccc2[nH]1
| target | test | remaining binding [%] |
| --- | --- | --- |
| SBK3 (Homo sapiens, UniProt P0C264) | cell-free assay | 87 |
| RET (Homo sapiens, UniProt P07949, V804M) | cell-free assay | 76 |
| Myosin-IIIb (MYO3B, Homo sapiens, UniProt Q8WXR4) | binding | 84 |
| PIK3CA (Homo sapiens, UniProt P42336, E545K) | cell-free assay | 100 |
| eIF-2-alpha kinase GCN2, C-terminal kinase domain (EIF2AK4, Homo sapiens, UniProt Q9P2K8, S808G) | cell-free assay | 100 |
| PIK3CG (Homo sapiens, UniProt P48736) | cell-free assay | 90 |
| EGFR (Homo sapiens, UniProt P00533, L858R) | cell-free assay | 91 |

Block 3 — tested at: 1 µM
Compound: COc1ccc2[nH]c3c4[nH]c5ccc(OC)cc5c4c4c(c3c2c1)C(=O)NC4=O
| target | test | conditions | how to read | remaining binding |
| --- | --- | --- | --- | --- |
| ULK2 (Homo sapiens, UniProt Q8IYT8) | competitive binding panel |  | relative to: vehicle | 87% |
| EPHA8 (Homo sapiens, UniProt P29322) | competitive binding panel |  | relative to: vehicle | 87% |
| PIK3C2B (Homo sapiens, UniProt O00750) | competitive binding panel |  | relative to: vehicle | 94% |
| RIOK3 (Homo sapiens, UniProt O14730) | competitive binding panel |  | relative to: vehicle | 100% |
| PTK6 (Homo sapiens, UniProt Q13882) | competitive binding | BRK |  | 81% |
| NLK (Homo sapiens, UniProt Q9UBE8) | competitive binding panel |  | relative to: vehicle | 52% |
| PRKCE (Homo sapiens, UniProt Q02156) | competitive binding panel |  | relative to: vehicle | 75% |

Block 4 — action: inhibitor; tested at: 1 µM
SMILES: C=CC(=O)N1CCC[C@@H](n2nc(-c3ccc(Oc4ccccc4)cc3)c3c(N)ncnc32)C1
| target | test | inhibition [%] |
| --- | --- | --- |
| AKT1 (Homo sapiens, UniProt P31749) | enzyme activity | 4 |
| SGK1 (Homo sapiens, UniProt O00141) | enzyme activity | 9 |
| PKN1 (Homo sapiens, UniProt Q16512) |  | 20 |
| PI4KB (Homo sapiens, UniProt Q9UBF8) | enzyme activity | 8 |
| MAP3K20 (Homo sapiens, UniProt Q9NYL2) | enzyme activity | 62 |
